Measured values from different studies.
A part holds a random share of what one study measured. Values joined by “and” are separate records of one study, mostly repeats; a detail may differ.
Sequence of UniProt P10721 (whole entry, unmodified, looked up): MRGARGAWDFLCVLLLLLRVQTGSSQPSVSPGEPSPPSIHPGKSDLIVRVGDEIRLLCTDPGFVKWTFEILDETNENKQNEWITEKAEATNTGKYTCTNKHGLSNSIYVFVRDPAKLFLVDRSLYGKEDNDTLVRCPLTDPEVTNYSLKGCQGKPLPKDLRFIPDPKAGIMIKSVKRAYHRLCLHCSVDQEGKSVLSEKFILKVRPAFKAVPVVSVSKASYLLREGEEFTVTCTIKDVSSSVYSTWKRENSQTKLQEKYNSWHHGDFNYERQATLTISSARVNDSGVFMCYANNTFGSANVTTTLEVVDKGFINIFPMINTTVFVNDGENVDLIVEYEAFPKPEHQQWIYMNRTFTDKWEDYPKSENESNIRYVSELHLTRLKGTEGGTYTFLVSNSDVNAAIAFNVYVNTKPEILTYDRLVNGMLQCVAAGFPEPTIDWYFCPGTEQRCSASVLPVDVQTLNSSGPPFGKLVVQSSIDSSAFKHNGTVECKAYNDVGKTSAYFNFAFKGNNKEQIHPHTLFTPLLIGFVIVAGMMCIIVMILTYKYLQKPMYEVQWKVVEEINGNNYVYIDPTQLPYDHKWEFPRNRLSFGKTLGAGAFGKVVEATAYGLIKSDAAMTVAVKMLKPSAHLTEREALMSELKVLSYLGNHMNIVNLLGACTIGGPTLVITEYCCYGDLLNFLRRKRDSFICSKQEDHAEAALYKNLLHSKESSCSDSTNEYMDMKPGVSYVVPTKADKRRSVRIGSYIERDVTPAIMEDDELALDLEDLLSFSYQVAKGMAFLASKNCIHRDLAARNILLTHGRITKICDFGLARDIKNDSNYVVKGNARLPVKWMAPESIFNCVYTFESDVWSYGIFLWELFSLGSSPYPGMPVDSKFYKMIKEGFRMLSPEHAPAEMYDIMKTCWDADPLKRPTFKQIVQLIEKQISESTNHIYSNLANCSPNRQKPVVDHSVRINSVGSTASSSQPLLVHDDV
Sequence of UniProt Q05655 (whole entry, looked up): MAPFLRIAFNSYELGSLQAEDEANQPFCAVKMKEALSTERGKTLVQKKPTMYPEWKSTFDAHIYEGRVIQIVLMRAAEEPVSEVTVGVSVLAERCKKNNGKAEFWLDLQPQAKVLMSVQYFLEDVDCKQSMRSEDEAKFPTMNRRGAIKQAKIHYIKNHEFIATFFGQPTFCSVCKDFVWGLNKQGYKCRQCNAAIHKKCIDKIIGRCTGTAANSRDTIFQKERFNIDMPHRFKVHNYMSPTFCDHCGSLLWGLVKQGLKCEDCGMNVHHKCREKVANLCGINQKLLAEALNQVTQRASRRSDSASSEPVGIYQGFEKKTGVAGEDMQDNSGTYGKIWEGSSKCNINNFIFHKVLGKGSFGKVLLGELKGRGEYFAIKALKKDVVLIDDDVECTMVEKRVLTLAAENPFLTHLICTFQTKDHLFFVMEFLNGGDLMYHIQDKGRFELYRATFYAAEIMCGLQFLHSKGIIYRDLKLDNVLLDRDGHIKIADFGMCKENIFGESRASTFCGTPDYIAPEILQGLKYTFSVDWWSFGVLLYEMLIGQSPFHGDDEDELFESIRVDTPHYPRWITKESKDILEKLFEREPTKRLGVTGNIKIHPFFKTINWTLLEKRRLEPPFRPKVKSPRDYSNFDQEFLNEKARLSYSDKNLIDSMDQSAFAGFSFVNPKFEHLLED
Sequence of UniProt O00329 (whole entry, looked up): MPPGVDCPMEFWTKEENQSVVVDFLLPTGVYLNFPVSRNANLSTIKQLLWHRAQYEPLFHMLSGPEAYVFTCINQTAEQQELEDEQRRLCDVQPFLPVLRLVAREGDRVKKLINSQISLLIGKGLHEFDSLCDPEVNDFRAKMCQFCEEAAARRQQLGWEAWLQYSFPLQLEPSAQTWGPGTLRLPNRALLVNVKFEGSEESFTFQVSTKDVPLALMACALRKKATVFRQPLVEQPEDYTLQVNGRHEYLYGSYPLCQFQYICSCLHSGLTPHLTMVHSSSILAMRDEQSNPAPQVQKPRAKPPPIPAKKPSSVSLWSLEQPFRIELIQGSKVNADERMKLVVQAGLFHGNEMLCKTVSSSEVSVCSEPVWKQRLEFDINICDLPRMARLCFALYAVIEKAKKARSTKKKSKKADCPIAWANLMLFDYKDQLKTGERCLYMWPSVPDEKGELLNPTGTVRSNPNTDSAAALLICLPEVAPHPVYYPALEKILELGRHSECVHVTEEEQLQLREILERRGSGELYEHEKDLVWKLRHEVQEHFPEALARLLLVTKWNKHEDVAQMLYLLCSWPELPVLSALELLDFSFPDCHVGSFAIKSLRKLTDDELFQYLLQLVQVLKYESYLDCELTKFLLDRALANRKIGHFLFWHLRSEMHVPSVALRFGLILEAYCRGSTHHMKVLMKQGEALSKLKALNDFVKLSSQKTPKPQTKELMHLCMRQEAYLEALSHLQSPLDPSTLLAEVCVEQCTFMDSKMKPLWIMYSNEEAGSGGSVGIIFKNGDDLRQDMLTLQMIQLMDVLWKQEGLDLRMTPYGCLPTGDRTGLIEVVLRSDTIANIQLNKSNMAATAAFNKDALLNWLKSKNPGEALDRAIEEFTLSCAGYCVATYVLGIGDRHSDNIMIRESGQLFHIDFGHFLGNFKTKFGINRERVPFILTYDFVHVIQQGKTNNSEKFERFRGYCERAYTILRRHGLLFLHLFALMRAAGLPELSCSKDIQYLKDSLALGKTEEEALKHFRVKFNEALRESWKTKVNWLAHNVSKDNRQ
Sequence of UniProt P48729 (whole entry, looked up): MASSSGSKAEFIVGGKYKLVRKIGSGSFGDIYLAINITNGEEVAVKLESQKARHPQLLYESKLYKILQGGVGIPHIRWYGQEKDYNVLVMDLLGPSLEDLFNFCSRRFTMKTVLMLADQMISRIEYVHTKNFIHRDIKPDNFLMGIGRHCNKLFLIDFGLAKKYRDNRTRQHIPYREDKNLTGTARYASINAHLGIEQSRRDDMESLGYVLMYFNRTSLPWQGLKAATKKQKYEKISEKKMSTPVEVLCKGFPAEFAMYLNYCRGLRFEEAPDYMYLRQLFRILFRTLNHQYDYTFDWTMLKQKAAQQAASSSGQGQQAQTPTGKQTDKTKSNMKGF
Sequence of UniProt P49759 (whole entry, looked up): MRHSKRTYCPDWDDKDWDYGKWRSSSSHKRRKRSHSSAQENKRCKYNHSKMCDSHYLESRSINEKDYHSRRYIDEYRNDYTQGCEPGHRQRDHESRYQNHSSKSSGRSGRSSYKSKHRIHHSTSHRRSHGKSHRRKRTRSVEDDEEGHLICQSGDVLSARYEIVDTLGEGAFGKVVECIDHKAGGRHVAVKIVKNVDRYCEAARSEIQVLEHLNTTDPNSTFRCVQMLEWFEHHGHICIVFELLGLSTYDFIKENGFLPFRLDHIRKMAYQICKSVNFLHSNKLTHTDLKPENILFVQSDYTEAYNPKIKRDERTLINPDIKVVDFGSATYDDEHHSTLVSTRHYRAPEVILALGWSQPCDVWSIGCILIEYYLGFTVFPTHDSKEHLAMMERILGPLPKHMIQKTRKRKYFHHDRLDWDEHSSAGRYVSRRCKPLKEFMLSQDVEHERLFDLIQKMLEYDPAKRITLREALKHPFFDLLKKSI

Block 1 — method: protein-binding microarray; molecule type: hairpin DNA; sample: in vitro; concentration: not given; baseline: not given; direction: higher = stronger binding; shared flanks, not repeated: GAGGCC … GGCCTCACACTCTTTCCCTACACG
Target: Signal transducer and activator of transcription 1-alpha/beta, full length (STAT1, Homo sapiens, UniProt P42224, residues 1-750)
Sequence of UniProt P42224 (whole entry, looked up): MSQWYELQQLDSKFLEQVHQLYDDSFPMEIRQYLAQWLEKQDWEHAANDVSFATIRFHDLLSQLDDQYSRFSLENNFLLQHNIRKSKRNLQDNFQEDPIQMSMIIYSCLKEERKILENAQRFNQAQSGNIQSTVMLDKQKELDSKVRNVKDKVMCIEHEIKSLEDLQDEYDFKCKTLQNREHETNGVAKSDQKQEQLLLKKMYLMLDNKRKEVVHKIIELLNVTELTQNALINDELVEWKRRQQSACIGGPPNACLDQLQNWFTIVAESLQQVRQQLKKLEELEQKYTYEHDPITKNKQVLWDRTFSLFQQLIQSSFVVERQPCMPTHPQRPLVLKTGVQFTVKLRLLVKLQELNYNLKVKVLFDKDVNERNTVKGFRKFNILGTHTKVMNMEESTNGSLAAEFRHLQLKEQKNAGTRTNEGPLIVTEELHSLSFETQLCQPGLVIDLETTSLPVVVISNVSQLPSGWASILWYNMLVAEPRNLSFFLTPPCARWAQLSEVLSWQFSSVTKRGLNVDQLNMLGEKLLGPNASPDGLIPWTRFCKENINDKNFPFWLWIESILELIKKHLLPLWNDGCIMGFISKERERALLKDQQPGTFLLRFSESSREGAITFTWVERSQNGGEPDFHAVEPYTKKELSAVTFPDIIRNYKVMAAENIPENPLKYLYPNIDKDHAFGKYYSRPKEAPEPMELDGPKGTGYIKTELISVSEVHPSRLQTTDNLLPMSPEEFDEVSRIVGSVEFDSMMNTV
Setting: whole hairpin DNA, median over replicate spots
| Strand | median fluorescence |
| --- | --- |
| TTTCCTGGAAGCCTCCTGGCTTCCAGGAAA (5mC at 11) | 4590 a.u. |
| TTTCCCCAAAGCCTCCTGGCTTTGGGGAAA | 933 a.u. |
| ATTCCCGGAAGCCTCCTGGCTTCCGGGAAT | 10200 a.u. |
| TTTGCCGGAAGCCTCCTGGCTTCCGGCAAA | 1170 a.u. |
| TTTTCCGGAAGCCTCCTGGCTTCCGGAAAA | 1580 a.u. |
| TTTCCCGGGAGCCTCCTGGCTCCCGGGAAA | 948 a.u. |
| TTGCCCGGAAGCCTCCTGGCTTCCGGGCAA (5mC at 34) | 2680 a.u. |
| TTTCCCGGAGGCCTCCTGGCCTCCGGGAAA (5mC at 27) | 7450 a.u. |

Block 2 — method: resazurin
SMILES: c1ccc(Oc2ccc(Nc3c4c(nc5ccccc35)CCC4)cc2)cc1
| cell line | conditions | cytotoxicity |
| --- | --- | --- |
| J774.1 | 66.66 µM, 64 h | 92% |
| RAW264.7 | 0.00332 µM, 64 h | -7% and -6% |
| HEK293 | 0.0066 µM, 10% serum | 9% and 4% |

Block 3 — cell line: mouse MPNST tumor cells; method: high-content immunofluorescence imaging; refers to: nuclear SOX9; concentration: 10 µM; time: 12 h; setting: mean of 2 replicates; baseline: DMSO control; direction: higher = more nuclear SOX9
| Structure (SMILES) | nuclear SOX9 intensity |
| --- | --- |
| O=C(O)CN(CCN(CC(=O)O)CC(=O)O)CCN(CC(=O)O)CC(=O)O | 96.7 % of DMSO |
| CC(C)c1ccc(NC(=O)c2cccs2)c(-c2nc3ccccc3[nH]c2=O)c1 | 101 % of DMSO |
| CCOc1nc2cccc(C(=O)O)c2n1Cc1ccc(-c2ccccc2-c2nnn[nH]2)cc1 | 99 % of DMSO and 92.9 % of DMSO |
| Cc1ccc2c(c1)c1c3n2CCNC3CCC1 (stereo not shown) | 156 % of DMSO |

Block 4 — observed: cell-free assay; method: competition with immobilised ligand; concentration: 1 µM
Structure (SMILES): N#CC1(c2ccccn2)CCN(Cc2cc(C(=O)N3CCCC3)c(=O)n3ccccc23)CC1
| target | remaining binding [%] |
| --- | --- |
| Phosphatidylinositol 4,5-bisphosphate 3-kinase catalytic subunit delta isoform (PIK3CD, Homo sapiens, UniProt O00329) | 61 |
| Dual specificity protein kinase CLK1 (CLK1, Homo sapiens, UniProt P49759) | 85 |
| Protein kinase C delta type (PRKCD, Homo sapiens, UniProt Q05655) | 95 |
| Homeodomain-interacting protein kinase 2 (HIPK2, Homo sapiens, UniProt Q9H2X6) | 100 |
| Epidermal growth factor receptor (EGFR, Homo sapiens, UniProt P00533, del752-759) | 81 |
| Dual specificity mitogen-activated protein kinase kinase 2 (MAP2K2, Homo sapiens, UniProt P36507) | 91 |
| Phosphatidylinositol 4,5-bisphosphate 3-kinase catalytic subunit alpha isoform (PIK3CA, Homo sapiens, UniProt P42336, H1047Y) | 64 |
| Epithelial discoidin domain-containing receptor 1 (DDR1, Homo sapiens, UniProt Q08345) | 85 |
| Homeodomain-interacting protein kinase 1 (HIPK1, Homo sapiens, UniProt Q86Z02) | 77 |
| Non-receptor tyrosine-protein kinase TNK1 (TNK1, Homo sapiens, UniProt Q13470) | 72 |
| Cyclin-dependent kinase-like 5 (CDKL5, Homo sapiens, UniProt O76039) | 100 |
| BDNF/NT-3 growth factors receptor (NTRK2, Homo sapiens, UniProt Q16620) | 93 |
| Mast/stem cell growth factor receptor Kit (KIT, Homo sapiens, UniProt P10721, L576P) | 100 |
| Mast/stem cell growth factor receptor Kit (KIT, Homo sapiens, UniProt P10721, V559D/V654A) | 100 |
| SNF-related serine/threonine-protein kinase (SNRK, Homo sapiens, UniProt Q9NRH2) | 91 |
| Receptor tyrosine-protein kinase erbB-3 (ERBB3, Homo sapiens, UniProt P21860) | 93 |
| Casein kinase I isoform alpha (CSNK1A1, Homo sapiens, UniProt P48729) | 79 |

Block 5 — method: protein-binding microarray; molecule type: double-stranded DNA, one strand shown; sample: in vitro; concentration: 250 nM; setting: 60-bp whole probe; together with: salmon DNA 0.4 mg/ml; baseline: random background probes; direction: higher = stronger binding; shared flanks, not repeated: GCCTAGCAC … GTCTTGATTCGCTTGACGCTGCTG
Target: Interferon regulatory factor 7, full length, phosphomimetic (IRF7, Homo sapiens, UniProt Q92985, residues 1-503, S101K/S471D/S472D/S475D/S476D/S477D/S483D/S484D/S487D)
Sequence of UniProt Q92985 (whole entry, unmodified, looked up): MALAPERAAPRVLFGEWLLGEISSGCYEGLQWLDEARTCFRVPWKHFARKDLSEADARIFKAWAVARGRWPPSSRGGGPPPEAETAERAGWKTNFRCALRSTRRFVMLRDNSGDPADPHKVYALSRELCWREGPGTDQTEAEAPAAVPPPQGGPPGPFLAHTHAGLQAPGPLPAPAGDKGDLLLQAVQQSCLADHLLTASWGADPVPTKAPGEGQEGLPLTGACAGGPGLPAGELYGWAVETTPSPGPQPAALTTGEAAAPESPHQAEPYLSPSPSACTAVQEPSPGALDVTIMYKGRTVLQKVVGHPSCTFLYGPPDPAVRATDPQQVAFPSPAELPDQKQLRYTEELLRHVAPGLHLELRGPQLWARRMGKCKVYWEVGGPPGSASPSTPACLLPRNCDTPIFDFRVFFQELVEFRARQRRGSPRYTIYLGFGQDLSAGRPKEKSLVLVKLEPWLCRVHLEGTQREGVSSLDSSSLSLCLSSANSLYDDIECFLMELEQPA
| Strand | log fluorescence |
| --- | --- |
| AGGATCCTGGGAGGGAGAGCGTGCTAG | -0.207 z-score |
| GTAGGTATCCTTTTCCTTTAGTGCTAG | 1.08 z-score |
| GACGATATCAGTCTCTAGACGTGCTAG | 0.0189 z-score |
| TTAGGACTGGGTTTAGGTTAGTGCTAG | 0.307 z-score |
| GATGGACTGGGGTTTCGGGACGTGCTA | 1.01 z-score |
| GATGGACTGCTTTTCCTGACGTGCTAG | 0.238 z-score |
| GACGATTACAGTCTCGAGACGTGCTAG | 0.272 z-score |
| GTCGGTTTCGGGACTGGGGACGTGCTA | 5.16 z-score |
